Measurements collected from several papers.
Protocols differ between the studies behind these lines. “And” joins repeats or separate records; there may be more than shown. ± marks the error that the study gave. Converted amounts (≈) assume the structure as drawn.

`Cn1cc(-c2ccc(-c3cncc(Cl)c3N3CCC4(CCNC4=O)CC3)cc2)cn1`: “log2 fold change” 1.41 (COLO 205; gene expression, microarray, item: FOSL1 mRNA; concentration not given, 6 h; baseline: untreated cells).
With `CC(C)NCC(O)COc1ccc(COCCOC(C)C)cc1` (stereo not drawn) the Vmax was 1220 pmol/min/mg protein (H+/organic cation antiporter; cell uptake; hCMEC/D3).
The glucose uptake of `CC1=NN(c2ccccc2)C(=O)C1=NNc1ccc(S(N)(=O)=O)cc1` is reported as 17.883 ± 0.000684% (Saccharomyces cerevisiae; 10 µg/mL).
`Cc1nc2n(c(=O)c1CCN1CCC(c3noc4cc(F)ccc34)CC1)CCCC2` has a Km of 92.1 µM (H+/organic cation antiporter; cell uptake; hCMEC/D3).
`CCn1cc(-c2cc(Cn3ccoc3=N)cc3c2CCN([C@@H](C)c2cc(OC)ccn2)C3=O)c(C(F)(F)F)n1` has an EC50 of > 30 µM (Capan-2; cell growth, inhibitor; 120 h).
For `CC(C)NCC(O)c1ccc(O)c(O)c1` (stereo not drawn), the sarcomere length was 1.8 µm (mouse ventricular cardiomyocytes; dose not given, 0.003 s).
The glucose uptake of `CC1=NN(c2ccccn2)C(=O)C1=NNc1ccc(S(N)(=O)=O)cc1` is reported as 25.2% (Saccharomyces cerevisiae; 500 µg/mL).
`COCCc1ccc(OCC(O)CNC(C)C)cc1` (stereo not drawn) has a Km of 124 µM (H+/organic cation antiporter; cell uptake; hCMEC/D3).
With `O=C(O)CNC(=O)Cc1ccccc1` the sarcomere length was 1.65 µm (ventricular cardiomyocytes, C57BL/6 mouse; dose not given, 0.156 s).
`CC[S+]([O-])c1nc(-c2ccccc2)cc(C(F)(F)F)n1` (stereo not drawn): “cells with nuclear reporter” 73% and 88.1% and 60.7% and 72.1% (importin alpha/beta-1; cMyc nuclear import, high content imaging; HeLa Kyoto reporter; 1.58 µM, 2 h).
With `O=C(/C=C/C=C/C=C/C1CCCCC1)NC1=C[C@@](O)(/C=C/C=C/C=C/C(=O)NC2=C(O)CCC2=O)[C@@H]2O[C@@H]2C1=O` the GI50 was 15.5 µM (LS-513; cell growth, CellTiter-Glo; 78 h).
For `COc1cnc2cccc(N3CCc4c(cc(Cn5ccnc5C)cc4-c4cn(C)nc4C(F)(F)F)C3=O)c2c1`, the EC50 was 0.259 µM (KP-4; cell growth, inhibitor; 120 h).
With `NC(=O)c1cnc2[nH]ccc2c1N[C@@H]1[C@@H]2CC3C[C@H]1C[C@@](O)(C3)C2` the percent change was 0.33% (CD8+ effector memory T cells, flow cytometry; Caucasian humans, peripheral blood; 60 mg single dose; baseline: baseline).
The Km of `C=CCN1C[C@H](C(=O)N(CCCN(C)C)C(=O)NCC)C[C@@H]2c3cccc4[nH]cc(c34)C[C@H]21` is reported as 74.1 µM (H+/organic cation antiporter; cell uptake; hCMEC/D3).
`c1coc(-c2n[nH]cc2-c2ccnc3ccccc23)c1` — result for “log2 fold change”: -0.06 (SAK1 (Candida albicans); kinase binding, MIB/MS competition; Candida albicans lysate; 1 µM; baseline: DMSO).
`CN[C@H](CC(C)C)C(=O)N[C@H]1C(=O)N[C@@H](CC(N)=O)C(=O)N[C@H]2C(=O)N[C@H]3C(=O)N[C@H](C(=O)N[C@H](C(=O)O)c4cc(O)cc(O)c4-c4cc3ccc4O)[C@H](O)c3ccc(c(Cl)c3)Oc3cc2cc(c3O[C@@H]2O[C@H](CO)[C@@H](O)[C@H](O)[C@H]2O[C@H]2C[C@](C)(N)[C@H](O)[C@H](C)O2)Oc2ccc(cc2Cl)[C@H]1O` gave an MBC of 2 µg/mL (≈ 1.38 µM) (Streptococcus pyogenes; broth microdilution).
For `CCn1cc(-c2cc(Cn3ccnc3)cc3c2CCN([C@H](c2cc(OC)ccn2)C2CC2)C3=O)c(C(F)(F)F)n1`, the EC50 was 17.1 µM (NCI-H2228; cell growth, inhibitor; 120 h).
`CCCCNc1ccc(C(=O)OCCN(C)C)cc1` has a Km of 123 µM (H+/organic cation antiporter; cell uptake; hCMEC/D3).
Under “log2 fold change”, `Oc1ccccc1-c1n[nH]cc1-c1ccnc2ccccc12` is recorded as -0.08 (RTK1 (Candida albicans); kinase binding, MIB/MS competition; Candida albicans lysate; 10 µM; baseline: DMSO).
`CC1=NNC(=S)NC(=O)C1/N=N/c1ccc(S(N)(=O)=O)cc1` (stereo not drawn) has a glucose uptake of 46.9% (Saccharomyces cerevisiae; 50 µg/mL).
For `OC(CCN1CCCCC1)(c1ccccc1)C1CC2C=CC1C2` (stereo not drawn), “EEG power, beta, Pz-O1” read 8.1 µV² (resting-state EEG; healthy elderly humans; oral, 2 mg, eyes closed, LS mean).
`CC(=O)NC[C@H]1CN(c2ccc(N3CCOCC3)c(F)c2)C(=O)O1` has an MIC50 of 1 µg/mL (≈ 2.96 µM) (Streptococcus pyogenes; 10 isolates; serum 50%).
`CCCCN1CCCC[C@H]1C(=O)Nc1c(C)cccc1C` gave a Vmax of 637 pmol/min/mg protein (H+/organic cation antiporter; cell uptake; hCMEC/D3).
For `CCS(=O)(=O)c1nc(C2CC2)cc(C(F)(F)F)n1`, “cells with nuclear reporter” read 66.5% and 90.2% and 94% and 95.4% (importin alpha/beta-1; cMyc nuclear import, high content imaging; HeLa Kyoto reporter; 0.0158 µM, 2 h).

Excerpt of the above:
`CC1=NNC(=S)NC(=O)C1/N=N/c1ccc(S(N)(=O)=O)cc1` (stereo not drawn) has a glucose uptake of 46.9% (Saccharomyces cerevisiae; 50 µg/mL).
For `OC(CCN1CCCCC1)(c1ccccc1)C1CC2C=CC1C2` (stereo not drawn), “EEG power, beta, Pz-O1” read 8.1 µV² (resting-state EEG; healthy elderly humans; oral, 2 mg, eyes closed, LS mean).
`CC(=O)NC[C@H]1CN(c2ccc(N3CCOCC3)c(F)c2)C(=O)O1` has an MIC50 of 1 µg/mL (≈ 2.96 µM) (Streptococcus pyogenes; 10 isolates; serum 50%).
